Measurements pooled from the literature.
Every numbered part comes from another study and shows a few of its results, in no order. Changes are numbered by the printed parent chain.

Sample 1 — target: CCNA1, cyclin fold, Cln2 fusion (human); technique: yeast growth competition, sequencing; sample: yeast; setting: weak parent motif; baseline: not given; reading: higher = stronger binding
Parent: DNAH7 docking peptide (human); HELFQRLDFDNDG; partner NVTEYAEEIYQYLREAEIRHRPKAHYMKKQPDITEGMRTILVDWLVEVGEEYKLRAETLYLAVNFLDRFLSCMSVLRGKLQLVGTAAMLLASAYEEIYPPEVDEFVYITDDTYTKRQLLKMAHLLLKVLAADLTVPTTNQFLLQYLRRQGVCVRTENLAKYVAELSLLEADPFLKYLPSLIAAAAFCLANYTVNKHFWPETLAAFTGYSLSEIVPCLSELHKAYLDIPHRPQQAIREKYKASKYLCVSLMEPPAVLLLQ
Under “normalised enrichment score”, `HELFQRLDFDADG [N11A]` is recorded as -0.0615.
For `HELFQRLDFANDG [D10A]`, “normalised enrichment score” read -0.535.
Under “normalised enrichment score”, `HELFQRLDFDNAG [D12A]` is recorded as -0.287.

Sample 2 — technique: RNA Bind-n-Seq; molecule type: RNA; sample: in vitro; tested at: 365 nM; baseline: no-protein control; reading: higher = stronger binding
Target: RNA binding protein fox-1 homolog 2, RRM domain, GST-SBP tag (RBFOX2, Homo sapiens, UniProt O43251-10, residues 100-194)
Setting: natural RNA segment, single round, ends assumed
Shared flanks, not repeated: GGGAGUUCUACAGUCCGACGAUC … UGGAAUUCUCGGGUGCCAA
Construct (chain): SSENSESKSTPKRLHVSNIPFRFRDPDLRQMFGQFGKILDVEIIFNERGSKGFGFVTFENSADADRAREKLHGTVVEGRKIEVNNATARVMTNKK
Under “RBNS enrichment (R)”, `UUUCUGCAAGCAACUUUAAUGACUUUUUUUAUACCACAUGGUCUCCCAGUUUCUAGAUGAAUGCAACAUGAUGAUGGUGAUGAUGACGAUGAGUUUAAUCAUUGUUCAUU` is recorded as 1.03.
Under “RBNS enrichment (R)”, `CUUCUCUGCAGCCAGUCCUCUAACAAAUCUCAAGAACAAAGGUAAGACACUUGGUUUUUGUUUCCAGGACCCUUCAGAAGGUGACAUCAGAUAUUCCCUAAAUUCAGACA` is recorded as 0.411.
For `CAGGUUAAGUGUGAGUAAUCUGAGAAACAAUGACUAAUUCUUGCAUAUUUUGUAACUUCCAUGUGAGGGUUUUCAGCAUUGAUAUUUGUGCAUUUUCUAAACAGAGAUGA`, “RBNS enrichment (R)” read 8.4.
Under “RBNS enrichment (R)”, `CCCGCUGUCGGGUCUCUCUAGGCCUAUGAACCACAAAGCAGGGAAGUGGGCACGUUCUCUCGGGGUGGCUCACAGCUUUGAACCUGCCAAAGGACCCCUCGACUGGCCAC` is recorded as 0.339.
For `AGGUAUUUAAAUUGUUCAUCUUAGUUGACUUUCCCAAGCCAUACUUCUAAAACAAAACACCAGCCCCAUAGACCACUGAGCACCUAGGGAGGUUUCUCUGCCUAGCCAUA`, “RBNS enrichment (R)” read 0.33.

Other studies, line by line
ABI1: ABI1, truncated, D143A, DHFR fusion (Arabidopsis thaliana)
P1: PYL1, truncated, DHFR fusion (Arabidopsis thaliana); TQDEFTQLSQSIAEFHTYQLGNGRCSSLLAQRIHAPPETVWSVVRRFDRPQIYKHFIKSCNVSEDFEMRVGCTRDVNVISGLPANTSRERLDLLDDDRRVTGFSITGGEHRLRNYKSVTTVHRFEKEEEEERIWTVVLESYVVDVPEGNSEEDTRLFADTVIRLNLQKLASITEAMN; partner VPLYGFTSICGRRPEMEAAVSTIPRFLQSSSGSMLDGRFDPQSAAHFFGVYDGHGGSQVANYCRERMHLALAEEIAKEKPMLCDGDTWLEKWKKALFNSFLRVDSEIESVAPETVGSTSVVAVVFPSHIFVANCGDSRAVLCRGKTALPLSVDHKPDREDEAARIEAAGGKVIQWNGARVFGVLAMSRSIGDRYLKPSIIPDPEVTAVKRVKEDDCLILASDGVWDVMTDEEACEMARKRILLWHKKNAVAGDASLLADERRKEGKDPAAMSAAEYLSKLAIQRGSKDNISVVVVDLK
`P1 E130N` — result for “relative binding score”: 28.1% (ABI1; DHFR PCA, deep sequencing; yeast; methotrexate growth selection, single substitutions, with: (+)-ABA 0.0091 µM; baseline: wild-type fitted maximum, higher = stronger binding).
With `PhoQ, residues 284 288 289 292 302 303 ASTSDA` the fold induction was 25.8 (PhoP, residues 12 14 15 18 19 LYHSL (Escherichia coli, UniProt P23836); Sort-seq, item: YFP reporter; E. coli; PhoQ-PhoP variant library, with: 10 µM Mg2+; baseline: high Mg2+ state, higher = stronger signaling).
`P1 K116M` — result for “relative binding score”: 88.7% (ABI1; DHFR PCA, deep sequencing; yeast; methotrexate growth selection, single substitutions, with: (+)-ABA 710 µM; baseline: wild-type fitted maximum, higher = stronger binding).
For `P1 I133D`, “relative binding score” read 117% (ABI1; DHFR PCA, deep sequencing; yeast; methotrexate growth selection, single substitutions, with: (+)-ABA 710 µM; baseline: wild-type fitted maximum, higher = stronger binding).
`P1 N165R` — result for “relative binding score”: 1.34% (ABI1; DHFR PCA, deep sequencing; yeast; methotrexate growth selection, single substitutions, with: (+)-ABA 710 µM; baseline: wild-type fitted maximum, higher = stronger binding).

A few entries again (other studies, line by line):
`P1 E130N` — result for “relative binding score”: 28.1% (ABI1; DHFR PCA, deep sequencing; yeast; methotrexate growth selection, single substitutions, with: (+)-ABA 0.0091 µM; baseline: wild-type fitted maximum, higher = stronger binding).
